Results of several laboratories.
Parts stem from different laboratories: compare values within a part only.

Study 1
Target: Interferon regulatory factor 3, full length, phosphomimetic (IRF3, Homo sapiens, UniProt Q14653, residues 1-427, S386D/S396D/S398D/S402D/T404D/S405D)
Technique: protein-binding microarray
Form: double-stranded DNA, one strand shown
Matrix: in vitro
Tested at: 2540 nM top
Setting: 60-bp whole probe
With: salmon DNA 0.4 mg/ml
Baseline: random background probes
Direction: higher = stronger binding
Measurement: fitted relative affinity
All sequences stand within: GCCTAGCAC … GTCTTGATTCGCTTGACGCTGCTG
Residues (chain): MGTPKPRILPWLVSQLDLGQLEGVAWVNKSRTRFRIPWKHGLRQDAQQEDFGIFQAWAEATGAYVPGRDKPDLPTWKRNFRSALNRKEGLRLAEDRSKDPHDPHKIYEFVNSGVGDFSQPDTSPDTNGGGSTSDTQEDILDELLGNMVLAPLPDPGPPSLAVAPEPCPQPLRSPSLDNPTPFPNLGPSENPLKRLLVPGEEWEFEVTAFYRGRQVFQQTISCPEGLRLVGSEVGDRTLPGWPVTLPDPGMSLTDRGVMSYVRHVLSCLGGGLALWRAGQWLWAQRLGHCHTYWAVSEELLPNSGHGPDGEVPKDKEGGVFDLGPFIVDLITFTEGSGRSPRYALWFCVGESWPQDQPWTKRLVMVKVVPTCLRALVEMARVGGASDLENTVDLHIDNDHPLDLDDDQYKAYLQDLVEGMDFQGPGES
Sequence = TTAGATCTGGGGTATCGATTAGTGCTA; value = -0.343 z-score
Sequence = TTTGATTTCGGGACTGGATTAGTGCTA; value = 1.86 z-score
Sequence = TCAAGTATTTATCTGCAACTGTGCTAG; value = -0.18 z-score
Sequence = GACGTTTTCCTTCTCCTGACGTGCTAG; value = 7.11 z-score
Sequence = TCATGTAACTCCTATCCAACTGTGCTA; value = 0.293 z-score
Sequence = GACGGTTTCCTGCTCCTGACGTGCTAG; value = 3.67 z-score
Sequence = GACGGTATCCTTCTGCTGACGTGCTAG; value = 4.38 z-score
Sequence = CCACTCTTGCTTTTTAGATCGTGCTAG; value = 1.52 z-score
Sequence = GAAAACAAAGAAAATACAAAGTGCTAG; value = 0.626 z-score
Sequence = TGTGCTTTCCTGATGGTCCTGTGCTAG; value = 1.21 z-score
Sequence = TTAGGTAGCGACTTTCGGTTAGTGCTA; value = 1.29 z-score
Sequence = TTAGAACTGGGGTTTCGACTAGTGCTA; value = -0.132 z-score
Sequence = GACGGTATCGGGTATGGGGACGTGCTA; value = 1.53 z-score
Sequence = TTAGGTTTCGACACGGGGTTAGTGCTA; value = 1.89 z-score
Sequence = TTAGGTCTCCTACTGGTTTAGTGCTAG; value = 0.777 z-score
Sequence = TTAGATTCCAGTTTCCATTAGTGCTAG; value = 5.91 z-score
Sequence = GACGGTATCGTTCTCGGGACGTGCTAG; value = 4.43 z-score
Sequence = TTAGGAATCGGGTTTCGGTTAGTGCTA; value = 2.97 z-score
Sequence = TTAGGTTTCGGGTATCGGTGAGTGCTA; value = 4.28 z-score
Sequence = TTAGGTTCCGGTTTCGGTGAGTGCTAG; value = 6.91 z-score
Sequence = ACCAAAATCAAGTCTGGGCTAGTGCTA; value = 0.199 z-score
Sequence = GACGGTCTCCGACTGCTGACGTGCTAG; value = 0.712 z-score
Sequence = TACTGTCTGTTTCCTCTTTCTGTGCTA; value = 3.41 z-score
Sequence = GCCGGTATCGACTTTCGGGACGTGCTA; value = 1.81 z-score
Sequence = TCATTTTTTTTCTTTAAACTGTGCTAG; value = 1.55 z-score

Study 2
Target: RNA binding protein fox-1 homolog 2, RRM domain, GST-SBP tag (RBFOX2, Homo sapiens, UniProt O43251-10, residues 100-194)
Technique: RNA Bind-n-Seq
Form: RNA
Matrix: in vitro
Tested at: 365 nM
Setting: natural RNA segment, single round, ends assumed
Baseline: no-protein control
Direction: higher = stronger binding
Measurement: RBNS enrichment (R)
All sequences stand within: GGGAGUUCUACAGUCCGACGAUC … UGGAAUUCUCGGGUGCCAA
Target sequence (chain): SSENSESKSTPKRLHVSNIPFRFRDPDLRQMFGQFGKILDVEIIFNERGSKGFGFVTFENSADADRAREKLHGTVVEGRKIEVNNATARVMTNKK
Sequence = CAGGGAUACGCCCAACACCAUGGCCUGCAACCCCAGGGUCAAGGGUGAAGGAAAGCAAGCUCACCGCCUGAACACGGAGAUUGUCUUUCUGCCACAGAACAGCAGCAGAC; value = 0.302
Sequence = CCAAAUUUAAAAUGUGUGCCAUAUUCUGGUUCUUGAAAAUAAGAUUCCAGAGCUCUUUGAUCGCUUUUAAUAAACUGCAAGUUCAUUUUAAAUGAAGGGCCAGCAUAUAU; value = 0.625
Sequence = AGGUUGCUGAGAAAUGUAAGAGGAGCUGAAGUACAUUGUAUGCAGUUACUGACUGCUUUAGGCAUAGUCUCCGCAGAAGCCUCGUGUGUCCAGUGCUGGGUGUUUGGGUG; value = 0.464
Sequence = UUUGUAGGUCUCUAAUAAAGAACUUUAUGUGGUCCUUCUACCUCUUGCUGUGAAGAACAGAGCCCACCCCAUAGCCUAAAUCUGUCCCUUCUAUUCCUUGUCCCCUCCCU; value = 0.766
Sequence = AUGGAAGUGGACUGAAGCCUAUGUAGAAACACACACACACUGAACAUUGUUAUUCAUUUUGUAAAAUACUAGUCUUUAUUUUCAUUUUUUGUAAAAUUUAAACAUCGUAU; value = 0.612
Sequence = CCCCCAGAUUGGCCCAGUGGCAUGCCAUUAGGUGAUUUUGCAUAGGGGCCAUAUCAUUCAUGGCCAAAAAAAACCAAAAAGCAAAAAACAAAAACAAGUCCCAUGUCCUA; value = 0.296
Sequence = ACAAAUGGUGCUGUUGCAAACACUUUUUUUUUGAGAUGAAGUCUCGCGGUUGUCACCCGGGCUGGAGUGCAGUGGCGUGAUCUCGGCUCACUGCAACUUCCACCUCCUGG; value = 0.198
Sequence = AAGUCAAGUAUUGGAAAGUAUAAAAGAAAAAUCAUUCUGACAAUUUCUAAGCCAGAAGCAAACAAGAAUUACUGAAAUCUACCCCAUGAAUACUUGGAAGGCAGUAAUUG; value = 0.311
Sequence = GUUUGUUAAGAGCUGUCUUUAGCAUUCUGCUGGAAGAAUUUUGGGAGCAACAGACUGGGACAGAGCCUGCCAGCUGUGGUGGUGAUCUUUGGCAGUGCUAAGGCAAAGGA; value = 0.938
Sequence = UUCAUUUUUCUCACUGAGCCAGUGAUGGUUGCUAUCCUCUAGGAAAAAAAAAGAAACUGGGGUAGGUUGUAGGAGGGGGGCCCAGAAAGACACCCCUGUACCUCUUCUCC; value = 0.271
Sequence = GAUCAGGGAAGCUGCUGGCAUCGUCCCCACCCCCAGCCUGGGGGUCUGGGCUGGGGCAGGGAUUGCUCAGUGGAAGCAGGACUGGGGGUCUGGCUUGCCCCCUCCCUGGG; value = 0.345
Sequence = AAAUAUGACUGGCAACCUGAAUUUGAGUUGGGAUUCUUUGUGUAUUUUUCCCCCUUGAGGUUAUUGUUUCUUCCUAAUUUAUAUUUCAGAUACAUAGUGUAGAACAGGAA; value = 1.06

Study 3
Target: Fragile X messenger ribonucleoprotein 1, C-terminal low-complexity region (Fmr1, Mus musculus, UniProt P35922)
Technique: RNA Bind-n-Seq
Form: RNA
Matrix: in vitro
Tested at: 200 nM
Setting: whole 134-nt RNA, ends assumed
With: 150 mM LiCl
Baseline: input library
Direction: higher = stronger binding
Measurement: log2 enrichment
Library: 7-deaza-guanosine replaces G
All sequences stand within: GGGAGUUCUACAGUCCGACGAUC … UGGAAUUCUCGGGUGUCAAGG
Sequence = AAGUCCUGUGCUACACAUCGUAUGUACCGAAUCGGGCCCCGGGCCCCGGGGCCCCGGAAAGUAUUAUGUUACGCCGUUCGGAUCUGCACU; value = 0.455
Sequence = GUCCUGUGCUACACAUCGUAUGUACCGAAUCGGGAAAGGGUUUUUUUGGGAAAAAGGGAAAGUAUUAUGUUACGCCGUUCGGAUCUGCAC; value = -1.08
Sequence = GUCCUGUGCUACACAUCGUAUGUACCGAAUCGGGGUUUUUGGGGAGGGGUUUUUGGGGAAAGUAUUAUGUUACGCCGUUCGGAUCUGCAC; value = -0.0852
Sequence = GCAAAAAGUAAAAACAAAUGGAAAUGCUUCGGAUAGUGGCAGGGGUGGGGGUUGCUAAGGAAAGGGUGGGAUGGGAGUGGGUAAAGAGUU; value = 1.3
Sequence = UCAAGUCCUGUGCUACACAUCGUAUGUACCGAAUCGGGUGGGUUUGGGUUUGGGAAAGUAUUAUGUUACGCCGUUCGGAUCUGCACUUCC; value = -1.56
Sequence = GUCCUGUGCUACACAUCGUAUGUACCGAAUCAAACCCCCAAAUUUUUUUAAACCCAAAAAAGUAUUAUGUUACGCCGUUCGGAUCUGCAC; value = 1.15
Sequence = UGGACCCGGAGCUGAUGCAGAAGUUCAGCUGCCUGGGCACCACCGACAAGGACGUGCUCAUCUCCGAGUUCCAGAGGCUGCUCGGCUUCC; value = -2.36
Sequence = GCAGGAAGUAAAAACAAAUGGAAAUGCUUCGGAUAGUGGCAGGGGUGGGGGUUGCUAAGGAAAGGGUGGGAUGGGAGGGGGUAAAGAGUU; value = 0.37

Study 4
Target: RING finger protein unkempt homolog, zinc fingers 1-6, SBP tag (UNK, Homo sapiens, UniProt Q9C0B0, residues 30-357)
Chain of UniProt Q9C0B0 (30-357, looked up): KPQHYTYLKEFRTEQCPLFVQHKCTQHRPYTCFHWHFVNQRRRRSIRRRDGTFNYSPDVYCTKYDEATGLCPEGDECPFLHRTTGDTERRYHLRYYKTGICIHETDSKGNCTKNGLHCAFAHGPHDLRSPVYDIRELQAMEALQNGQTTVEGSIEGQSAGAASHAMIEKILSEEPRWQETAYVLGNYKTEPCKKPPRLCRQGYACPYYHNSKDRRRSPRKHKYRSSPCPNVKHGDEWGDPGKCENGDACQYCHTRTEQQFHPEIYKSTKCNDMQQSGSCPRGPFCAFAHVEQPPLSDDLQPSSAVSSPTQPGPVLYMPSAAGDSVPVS
Technique: RNA Bind-n-Seq
Form: RNA
Matrix: in vitro
Tested at: 100 nM
Setting: RNA with constant flanks, vertebrate orthologous sites, ends assumed
Baseline: input RNA pool
Direction: higher = stronger binding
Measurement: bound/input enrichment
All sequences stand within: GGGAGUUCUACAGUCCGACGAUC … CAACAGAGGAUUGAGCAUCA
Sequence = CUACACCAGAUAUUUUAACUGUUUUAAAGUUACAAACAAGCUUUGCUUUUUGCAUUUAAAUAGAAUACUUUUAUAUUGUAAGUGCUUCAGAUGUGGGGAGAUGUUAGUUUGCUCAUAUAA; value = 1.02 ratio
Sequence = CUGUGUGUUGGUGCAGAGUGCUCUGUACCAGUGCUCAUCAUCCUUCAUACCAACUAUCCCUCGUUGUAGGAAUUUAAUAUUUUUAAAAGUUUUACAUUGCUGUAUAUUCAAAGAUUUGUU; value = 0.477 ratio
Sequence = CACAUCUGGUGAUAUUUGGCCUGGCCUCUCAGCUUAUGAUAAUAGUCCCAGAUCACCCCAUAGUCCUUCACCUAUUGCUACACCACCUAGUCAGAGUUCAUCUUGCUCUGAUGCCCCCAU; value = 1.02 ratio
Sequence = GGGUCUACUGACCACUCACCAUUAAUGUCUGGUAUCUGUAAAACACUUUUUUUUUGUUCCUAGUCUUUUUCUUGUACAAUUGAUGUUCUUUAAAAUUGUUAAUGUAUAACAGGGCUUAUG; value = 0.706 ratio
Sequence = GAAGAUGGUGGUUGUACAUUAUUCAUUUAGGAAAUAUAAAAACUCGUUUUGUUUUGAAGCUAGGUAUUAAUUGGAAUAGCUAUUAUACCUGAGAACGGGGCAGCUGUGCCCUUCCUUUGA; value = 1.5 ratio
Sequence = AGUGGCAUUUGCUCCACUAAAAAGAGUAAAAUUAAGUCCCCCAAAUAUAAGACUCCUAAGUAGCUAUUAGAAAAAUUAAAAUGUUUAACUUUUGUAAAUCACCUGAUACCACCACACACU; value = 3.55 ratio
Sequence = UCGUGCCCCACUCUUGUGAGAGGGAGUGGGGAAUGCAGGUGACCCUCAGCUAUUCCAAUCCAGUUUUCUUUUUAAGAAUUACUGUAUUUAUUAUGACGAUGGUGACUCCCCGGUGCACAG; value = 0.56 ratio
Sequence = AGAAAAUUUUAACCAAGAAUCUGAAGCUAGAAAUACAGGACCGUGGUUAUCUUCCUCGCUUAGAAAUAGAUGCACACCUUUGUUUUCUAGAAGGAGGCGAGAAGGAAGAGAUGAAUCUUC; value = 0.752 ratio
Sequence = CCCAUGGCUGCUUUGUAUCACCUCAGUGACUUACAGUCCCCCUUGGCAUUUAGUUGGUACUAGAGCCAGUCAUCCUUAACAAAUCUUUUCACAUUUUAUUUCUUUCACAUGUAGUCAUCU; value = 2.53 ratio
Sequence = UUACAGUCAUUGAUGGACUCUAUUUUUUUAUUAUUACUUGGACCUUGGUCGUUUUUAUACUAGCAAAAUGUCUUGUUUUGAUUUGUGUUUUGGUUUUUGUUUUGUUUUGUUUUGUUUUUG; value = 1.77 ratio
Sequence = CUAAAGCUUUGUGUUUGGCUGCACCUGCAUAAGCUGCUACAAAUAGAAUAAAGAAUUUCAUAGCCUGUAUCUAUCAUUUUAGAUGCAUGGAAAAAAUGGGCUUUGCACACAAUGGGUUUG; value = 1.9 ratio

Repeated from above (study 1):
Sequence = TGTGCTTTCCTGATGGTCCTGTGCTAG; value = 1.21 z-score
Sequence = TTAGGTAGCGACTTTCGGTTAGTGCTA; value = 1.29 z-score
Sequence = TTAGAACTGGGGTTTCGACTAGTGCTA; value = -0.132 z-score
Sequence = GACGGTATCGGGTATGGGGACGTGCTA; value = 1.53 z-score
Sequence = TTAGGTTTCGACACGGGGTTAGTGCTA; value = 1.89 z-score
Sequence = TTAGGTCTCCTACTGGTTTAGTGCTAG; value = 0.777 z-score
